Assay results gathered from unrelated publications.
Protocols differ between the studies behind these lines. ± marks the error that the study gave.

Compound	tested on	test	test system	setting	scale	measurement	value
N=C(N)NCCC[C@H](NC(=O)[C@H](CCCNC(=N)N)NC(=O)[C@H](Cc1ccccc1)NC(=O)[C@H](Cc1c[nH]c2ccccc12)NC(=O)[C@H](Cc1c[nH]c2ccccc12)NC(=O)[C@H](Cc1ccccc1)NC(=O)[C@H](CCCNC(=N)N)NC(=O)[C@H](CCCNC(=N)N)NC(=O)[C@@H](N)Cc1ccccc1)C(=O)N[C@@H](Cc1ccccc1)C(N)=O			ICR mouse	intraperitoneal, 5, 10, 20 mg/kg daily, 3 days	baseline: saline	liver, spleen, kidney indices	no effect
CC[C@H](C)C(=O)N1CCC(NC(=O)Nc2ccc(OC(F)(F)F)c(F)c2)CC1			healthy volunteers	oral, 8 mg single dose, ventricular extrasystoles		subjects with extrasystoles TEAE	0%
CC[C@H](C)[C@H](NC(=O)[C@H](Cc1ccccc1)NC(=O)[C@H](CC(=O)O)NC(=O)[C@H](CCN)NC(=O)[C@H](Cc1ccccc1)NC(=O)[C@H](Cc1ccccc1)NC(=O)[C@H](CCCCN)NC(=O)[C@H](CN)NC(=O)[C@H](CC(C)C)NC(=O)[C@H](CCCNC(=N)N)NC(=O)[C@H](CCSC)NC(=O)[C@H](C)N)C(=O)N[C@@H](CC(C)C)C(=O)N[C@@H](CCC(N)=O)C(=O)N[C@@H](CCCNC(=N)N)C(=O)N[C@@H](CCCCN)C(=O)N[C@@H](CCCCN)C(=O)O		circular dichroism	20% TFE in PBS	200 µM, pH 7.4, 25 °C		helicity	17.4%
CC(C)(CCCC/C=C/CCCCCC(C)(C)C(=O)O)C(=O)O			humans plasma			plasma protein binding	> 99.8%
[2H]C([2H])([2H])C([2H])([2H])C([2H])([2H])OC(C(=O)OC1CCNCC1)(c1ccccc1)c1ccccc1			healthy Japanese male subjects, plasma	oral, 8 mg once daily, day 1, fed, mean		Cmax	14.3 ng/mL
CCNc1cc2[o+]c3cc(NCC)c(C)cc3c(-c3ccccc3C(=O)OCCOCC[18F])c2cc1C		PET	rat	35 min p.i.		heart to liver ratio	4.2
CC[C@H](C)[C@H](NC(=O)[C@@H](NC(=O)[C@H](CC(=O)O)NC(C)=O)[C@@H](C)O)C(=O)N[C@@H](CCCNC(=N)N)C(=O)N[C@@H](CC(C)C)C(=O)N[C@@H](CC(C)C)C(=O)N[C@@H](Cc1ccccc1)C(=O)N[C@@H](CCC(N)=O)C(=O)N[C@@H](CC(C)C)C(=O)N[C@@H](CCSC)C(=O)N[C@@H](CCCNC(=N)N)C(=O)N1CCC[C@H]1C(=O)N1CCC[C@H]1C(=O)N[C@@H](CC(N)=O)C(=O)N[C@@H](CCSC)C(=O)N[C@H](C(=O)N1CCC[C@H]1C(=O)N[C@@H](C)C(=O)N[C@H](C(=O)N[C@@H](CC(N)=O)C(=O)N[C@@H](C)C(N)=O)C(C)C)[C@@H](C)O		measured: HA-19 tetramer	tetramer+ CD4 T cells, PBMC, healthy adults, HLA-DRB1*0101	dose not given, CD62L−CD45RA+/− or CD62L+CD45RA−		antigen-experienced T cells	64.1%
N=C(N)NCCC[C@@H]1NC(=O)[C@H](CCCCNC(=O)CCOCCOCCOCCOCCNC(=O)CN2CCN(CC(=O)O)CCN(CC(=O)O)CCN(CC(=O)O)CC2)NC(=O)[C@@H](Cc2ccccc2)NC(=O)[C@H](CC(=O)O)NC(=O)CNC1=O [indium-111 labelled]			female athymic nude mice, lungs	intravenous, 3 µCi, 4 h, U-87 MG glioma xenograft		tissue uptake	0.59 ± 0.01 %ID/g
CC(C)[C@H](NC(=O)CNC(=O)[C@H](CCC(N)=O)NC(=O)[C@H](C)N)C(=O)O			human	30 mg/kg single dose		subjects given concomitant medication	0%
CC(C)COC1O[C@@H]2O[C@@]3(C)CC[C@H]4[C@H](C)CCC([C@H]1C)[C@@]24OO3 (stereo partly shown)			Tg(fli1:EGFP) zebrafish embryos	1.0 µg/mL, up to 48 hpf		dead embryos	0 count
CC(C)[C@H](N)C(=O)N[C@@H](Cc1ccc(O)cc1)C(=O)N[C@@H](CCCCN)C(=O)N[C@H](C(=O)N[C@@H](CCCCN)C(=O)N[C@H](C(=O)N[C@@H](CCCCN)C(=O)N[C@H](C(=O)N[C@@H](CCCCN)C(=O)N[C@H](C(=O)N[C@@H](CCCCN)C(=O)N[C@H](C(=O)N[C@@H](CCCCN)C(=O)N[C@H](C(=O)N[C@@H](CCCCN)C(=O)N[C@H](C(=O)N[C@@H](CCCCN)C(=O)N[C@H](C(=O)O)[C@@H](C)O)C(C)C)[C@@H](C)O)C(C)C)[C@@H](C)O)C(C)C)[C@@H](C)O)C(C)C		binding, SPR two-state model	rVλ6Wil fibrils	300 nM		Rmax	89.7 RU
COC(=O)C[C@](O)(CCCC(C)(C)OC(C)=O)C(=O)O[C@@H]1C(OC)=C[C@]23CCCN2CCc2cc4c(cc2[C@H]13)OCO4			CD1 mouse, pancreas	oral, 1 mg/kg, 8 h		tissue concentration	10.1 ng/mL
CN[C@](C)(C[18F])C(=O)O	DU-145 tumour model		host not given, bone	30 min, tumour-bearing		tracer uptake	2.2 %ID/g
N=C(N)NCCC[C@@H]1NC(=O)[C@H](CCCCNC(=O)CC[C@H](NC(=O)CCOCCOCCOCCOCCNC(=O)CN2CCN(CC(=O)O)CCN(CC(=O)O)CCN(CC(=O)O)CC2)C(=O)NCCCC[C@@H]2NC(=O)[C@@H](Cc3ccccc3)NC(=O)[C@H](CC(=O)O)NC(=O)CNC(=O)[C@H](CCCNC(=N)N)NC2=O)NC(=O)[C@@H](Cc2ccccc2)NC(=O)[C@H](CC(=O)O)NC(=O)CNC1=O [indium-111 labelled]			female athymic nude mice, liver	intravenous, 3 µCi, 0.5 h, U-87 MG glioma xenograft		tissue uptake	2.84 ± 0.36 %ID/g
CCN(CCCCOc1ccc(CCC(=O)N2CCC(Cc3ccccc3)CC2)cc1OC)Cc1ccccc1			Kunming mice	oral, 14 days		dose without obvious toxicity	≤ 1500 mg/kg
O=C(NC1CCCCC1)Oc1cccc(-c2cccc(CO)c2)c1			rat liver S9 fraction	together with: NADPH-regenerating system		log hydrolysis rate constant	-1.39
COc1cc2ccnc(Cc3ccc(O[11CH3])c(OC)c3)c2cc1OC		PET	rhesus macaque, putamen	intravenous, 3 min		peak SUV	~3.2
NCCCC[C@H](NC(=O)CNC(=O)CNC(=O)[C@H](CCCCN)NC(=O)CNC(=O)CNC(=O)CNC(=O)[C@H](CCCCN)NC(=O)CNC(=O)CNC(=O)[C@H](CCCCN)NC(=O)CNC(=O)CNC(=O)CNC(=O)[C@H](CCCCN)NC(=O)CNC(=O)CNC(=O)[C@H](CCCCN)NC(=O)CNC(=O)CNC(=O)CNC(=O)[C@H](CCCCN)NC(=O)CNC(=O)CNC(=O)[C@H](CCCCN)NC(=O)[C@H](CO)NC(=O)[C@H](Cc1ccc(O)cc1)NC(=O)CNC(=O)CNC(=O)CN)C(=O)NCC(=O)O		binding, SPR Langmuir fit	rVλ6Wil fibrils	300 nM, pH 7.4		Rmax	18.9 RU
COc1cc(NC(=O)C(=O)c2c(C)n(Cc3ccc(Cl)cc3)c3ccc(C)cc23)ccn1			female cynomolgus monkey, plasma	intravenous, 1 mg/kg, mean		Vss	8.38 L/kg
CCOP(=O)(OCC)OCCCCOC(=O)CC1=C(C)/C(=C/c2ccc([S+](C)[O-])cc2)c2ccc(F)cc21 (stereo not shown)			rat, muscle	topical, dose not given		AUC(0-24 h)	> 4 µmol·h/g
CC(C)C[C@H](NC(=O)[C@H](CCCCN)NC(=O)[C@H](CCC(=O)O)NC(=O)[C@H](C)NC(=O)[C@@H](NC(=O)[C@H](CCCCN)NC(=O)[C@H](CC(=O)O)NC(=O)[C@H](Cc1ccc(O)cc1)NC(=O)[C@H](Cc1ccccc1)NC(=O)[C@H](C)NC(=O)[C@H](CCCCN)NC(=O)[C@H](CC(C)C)NC(=O)[C@H](Cc1c[nH]c2ccccc12)NC(=O)[C@@H](N)CC(=O)O)C(C)C)C(=O)N[C@@H](CCCCN)C(=O)N[C@@H](CCC(=O)O)C(=O)N[C@@H](C)C(=O)N[C@@H](Cc1ccccc1)C(=O)N1CCC[C@H]1C(=O)N[C@@H](CC(=O)O)C(=O)N[C@@H](Cc1c[nH]c2ccccc12)C(=O)N[C@@H](C)C(=O)N[C@@H](CCCCN)C(=O)N[C@@H](C)C(=O)N[C@@H](C)C(=O)N[C@@H](Cc1ccc(O)cc1)C(=O)N[C@@H](CC(=O)O)C(=O)N[C@@H](CCCCN)C(=O)N[C@@H](C)C(=O)N[C@@H](C)C(=O)N[C@@H](CCC(=O)O)C(=O)N[C@@H](CCCCN)C(=O)N[C@@H](C)C(=O)N[C@@H](CCCCN)C(=O)N[C@@H](CCC(=O)O)C(=O)N[C@@H](C)C(=O)N[C@@H](C)C(=O)O			cynomolgus monkey, male, plasma	IV infusion, 75 mg/kg/dose, day 1, 30 min infusion, end of infusion 0 h		Tmax	60 min
CC(C)C[C@H](NC(=O)[C@H](Cc1ccccc1)NC(=O)CNC(=O)C/C=C(\F)[C@@H](N)Cc1ccc(O)cc1)C(=O)O			BALB/c mouse, plasma			t1/2	22 min
CCc1c2c(nc3ccc(OC4OC(C(=O)O)C(O)C(O)C4O)cc13)-c1cc3c(c(=O)n1C2)COC(=O)C3(O)CC (stereo not shown)			human patients, plasma	intravenous, 32 mg/m^2 of parent drug		Cmax	38 ng/mL
CC(C)C1=C(O)C(=O)C2=C(C=C[C@H]3C(C)(C)CCC[C@]23C)C1=O			Artemia salina, artificial seawater	100 ppm, 24 h		mortality	36.6%
CN(C)CC1CCCCC1(O)c1cccc(O)c1 (stereo not shown)			Caco-2	1 µM, 3 h, pH 6.8		efflux ratio	1.9
O=C1N[C@H]2[C@H](CS[C@H]2CCCCC(=O)OCc2ccnc(-c3cc(COC(=O)CCCC[C@@H]4SC[C@@H]5NC(=O)N[C@@H]54)ccn3)c2)N1.O=S(=O)([O-])C(F)(F)F.[Ru+2].c1cc[cH-]c1.c1ccc(P(c2ccccc2)c2ccccc2)cc1			zebrafish embryos			LC50	5.73 µg/mL
[11CH3]n1c(=O)n(CCCO)c(=O)c2c1nc(Oc1cccc(OC(F)(F)F)c1)n2Cc1ccc(Cl)cc1		ex vivo biodistribution	Sprague Dawley rat, blood	60 min post injection		tracer uptake	0.16 ± 0.01 %ID/g
CC(=CCC(O)C(C)=Cc1csc(C)n1)CC=CC(C)C(O)C(C)C(=O)C(C)(C)C(O)CC(=O)O (stereo not shown)			human, plasma	intravenous infusion, 6.5 mg/m2 KOS-1584, 3 h infusion, cycle 1		Cmax	1.93 ± 0.73 ng/mL

Some of these lines once more:
Compound	tested on	test	test system	setting	scale	measurement	value
CC[C@H](C)C(=O)N1CCC(NC(=O)Nc2ccc(OC(F)(F)F)c(F)c2)CC1			healthy volunteers	oral, 8 mg single dose, ventricular extrasystoles		subjects with extrasystoles TEAE	0%
CC[C@H](C)[C@H](NC(=O)[C@H](Cc1ccccc1)NC(=O)[C@H](CC(=O)O)NC(=O)[C@H](CCN)NC(=O)[C@H](Cc1ccccc1)NC(=O)[C@H](Cc1ccccc1)NC(=O)[C@H](CCCCN)NC(=O)[C@H](CN)NC(=O)[C@H](CC(C)C)NC(=O)[C@H](CCCNC(=N)N)NC(=O)[C@H](CCSC)NC(=O)[C@H](C)N)C(=O)N[C@@H](CC(C)C)C(=O)N[C@@H](CCC(N)=O)C(=O)N[C@@H](CCCNC(=N)N)C(=O)N[C@@H](CCCCN)C(=O)N[C@@H](CCCCN)C(=O)O		circular dichroism	20% TFE in PBS	200 µM, pH 7.4, 25 °C		helicity	17.4%
